Results collected from several papers.
“And” joins repeats or separate records; there may be more than shown. ± marks the error that the study gave.

O=C(Nc1cnccc1-c1ccc([18F])cc1)c1ccnc(NC(=O)C2CC2)c1 — SUV (FVB/NJ mice, both sexes, brain; intravenous, 5 min, median, P-gp inhibitor pretreatment, with: tariquidar 15 mg/kg iv): 1.02
CC(C)(O)c1ncc([S@](N)(=O)=NC(=O)Nc2c3c(cc4c2CCC4)CCC3)s1 — subjects with TEAEs (item: skin, subcutaneous tissue disorders; healthy human; oral, 30 mg, 14 days, CS formulation, once daily): 67%
CN1CCCNC(=O)c2cccc(c2)C(=O)NCCCN(C)CCCNc2cccc3c2C(=O)c2cccc(c2C3=O)NCCC1 — ALT (mice, serum; dose not given): 29.3 IU/L
COCC1CN(C2CCN(c3cc(OC)c(Nc4ncc(Br)c(Nc5ccc6c(c5P(C)(C)=O)OCCO6)n4)cc3C)CC2)C1 — grade ≥3 treatment-related AEs (EGFR-mutant NSCLC patients; oral, 240 mg once daily): 100%
C[C@@H](C(=O)O)c1ccc(-c2ccccc2)c(F)c1 — relative change of HPLC peak area (HPLC; solution; concentration not given, 6 h, room temperature): 0.59%
CCCCN1C(=O)c2cccc3c(NCCCCCCN4CCOCC4)ccc(c23)C1=O — fluorescence quantum yield (ethyl acetate): 1.03
COC(=O)C(C)n1nc(Cn2cc3cc(OCC[18F])c(Cl)cc3n2)c2ccccc2c1=O (racemic) — radiometabolite (rat, brain; 90 min): 36%
O=C([O-])CN1CCN(CC(=O)[O-])CCN(C(CO)C(O)CO)CCN(CC(=O)[O-])CC1.[Dy+3] (stereo not shown) — cumulative urinary excretion (ICP-MS; cynomolgus monkey; 58 days; relative to: dose): 98.9%
COc1cccc(OC)c1-c1cc(C(=O)NC2(C(=O)O)C3CC4CC(C3)CC2C4)nn1-c1ccc(C(=O)N(C)CCOCCOCCN(C)C(=O)[C@H](CCCCNC(=O)[C@H](CC(C)C)NC(=O)C2OC2C(=O)O)NC(=O)CN2CCN(CC(=O)[O-])CCN(CC(=O)[O-])CCN(CC(=O)[O-])CC2)cc1C(C)C.[177Lu+3] (mixture of isomers) — tumour-to-heart ratio (mouse, HT-29 xenograft; 24 h post injection, biodistribution; relative to: tumour over heart uptake): 7.5
COc1cc(N)c(C(N)=O)cn1 — microsomal CLint (metabolic stability; human, liver microsomes): < 5 µL/min/mg
Cc1nc(N)nc2c1C(=O)N[C@@H](c1ccc(F)cc1-c1cccc(O[11CH3])n1)C2 — tracer uptake (ex vivo biodistribution; mice, MDA-MB-231 subcutaneous xenograft, spleen; 60 min post-injection, baseline, vehicle pre-treatment): 1.5 ± 0.5 %ID
C=C(NC(=O)c1csc(-c2nc3c(cc2O)-c2nc(cs2)C(=O)NC(C(C)O)C(=O)NC(=C(C)OC)c2nc(cs2)C(=O)NC2c4nc(cs4)C(=O)NC(COC(=O)c4c5c6c(cccc6n4O)COC(=O)C(OC4CC(C)(O)C(N(C)C)C(C)O4)C2OC5)c2nc-3cs2)n1)C(N)=O (stereo not shown) — MRT(0-t) (ICR mice, Streptococcus pneumoniae ATCC 49169 infected, immunocompromised, blood; intravenous, 8 mg/kg/day once daily): 2.94 h
CCCC[C@H](NC(=O)CNC(=O)CNC(=O)[C@H](CCCCNC(=O)C(C)c1ccc(CC(C)C)cc1)NC(=O)CN1CCN(CC(=O)O)CCN(CC(=O)O)CCN(CC(=O)O)CC1)C(=O)N[C@H]1CC(=O)NCCCC[C@@H](C(N)=O)NC(=O)[C@H](Cc2c[nH]c3ccccc23)NC(=O)[C@H](CCCNC(=N)N)NC(=O)[C@@H](Cc2ccccc2)NC(=O)[C@H](Cc2c[nH]cn2)NC1=O (stereo partly shown) [lutetium-177 labelled] — tumour-to-tissue ratio (C57 mice, tumour; 2 h; relative to: lung): 7.27
C=CC(=O)Nc1cc(Nc2nccc(-c3cn(C)c4ccccc34)n2)c(OC)cc1N(C)CCNC — remaining compound (human, plasma; 10 d, on ice, high QC level): 59.7%
CN1CCC[C@]1(C)/C=C/S(=O)(=O)NC(=O)Nc1c2c(cc3c1CCC3)CCC2 — subjects with adverse event (item: nasopharyngitis, not related; human; oral, 12.5 mg twice daily, 14 days, multiple ascending dose): 0%
Cc1cccc(Cn2ncc3c4cc(F)c(CN(C)C)cc4n(C)c3c2=O)n1 — plasma concentration (Dutch-belted rabbit, plasma; intravitreal, 100 µM vitreous, 1.00 days): not detected
COC1CN([C@H]2CC[C@H]([C@@]3(C)Oc4c(Cl)cc(C(=O)NCc5c(SC)cc(C)[nH]c5=O)c(C)c4O3)CC2)C1 — log2 fold change (RNA-seq, item: CLCN1; human, whole blood; dose not given, 24 h; relative to: pretreatment baseline): 1.74
NCCCC[C@H](NC(=O)[C@H](Cc1c[nH]c2ccccc12)NC(=O)[C@@H](N)Cc1c[nH]c2ccccc12)C(N)=O — Trp emission maximum (DOPC vesicles; 2 h): 357 nm
C=CC(=O)Nc1cc(Nc2nccc(-c3cn(C4CC4)c4ccccc34)n2)c(OC)cc1N(C)CCNC — relative error (freeze-thaw stability; rat plasma; 80 ng/mL, three freeze-thaw cycles; relative to: nominal concentration): 12.4%
C[N+](C)(CCOCCOCCOCCNC(=S)Nc1ccc(C[C@H]2CN(CC(=O)[O-])CCN(CC(=O)[O-])CCN2CC(=O)[O-])cc1)C[c-]1cccc1.[64Cu+2].[Fe+2].c1cc[cH-]c1 — tumour uptake (pretargeted biodistribution; nude mouse, BxPC-3 xenograft tumour; 24 h post injection, 216 h lag time): 0.4 ± 0.1 %ID/g
C=Cc1c(C)c2cc3nc(c(CC(=O)OCCOCCOCCOC)c4[nH]c(cc5nc(cc1[nH]2)C(C)=C5CC)c(C)c4C(=O)OCCOCCOCCOC)[C@@H](CCC(=O)OCCOCCOCCOC)[C@@H]3C — compound loss (LC-MS; methanol-water 9:1; 5 min, pH 8.0): 7%
CC(CCC(=O)NCC(=O)O)C1CCC2C3CCC4CC(OC5OC(C(=O)O)C(O)C(O)C5O)CCC4(C)C3CC(O)C12C (stereo not shown) — Cmin (human, plasma; control): 71.8 ± 44.9 nM
O=C(c1ccccc1)N1C(c2ccc(OCC3CCN(CCCF)C3)cc2)c2ccc(O)cc2CC12CC2 (stereo not shown) — MRT(0-inf) (C57BL/6J mouse, plasma; intraperitoneal, 25 mg/kg): 2.21 h and 2.28 h
COc1ccnc(C(=O)N[C@H]2COC(=O)[C@H](Cc3ccccc3)[C@@H](OC(=O)C(C)C)[C@H](C)OC2=O)c1O — DT50 sediment (Staffordshire loam sediment, aerobic dark; 20 °C): 0.91 days
C#CC1(NC(=O)C(CC(C)(C)F)NC(c2ccc(-c3ccc(S(C)(=O)=O)cc3)cc2)C(F)(F)F)CC1 (stereo not shown) — cysteine adduct formation (MES buffer; 100 µM, 23 h, pH 5.5, 37 °C, with: cysteine 10 mM): < 1%
CC[C@H](C)[C@H](NC(=O)[C@H](CCCNC(=N)N)NC(=O)[C@H](Cc1c[nH]cn1)NC(=O)[C@@H](N)[C@@H](C)O)C(=O)N[C@@H](CC(C)C)C(=O)N[C@@H](CCCNC(=N)N)C(=O)N[C@@H](CCCNC(=N)N)C(=O)N[C@@H](CC(C)C)C(=O)N[C@@H](Cc1ccccc1)C(=O)N[C@@H](CC(N)=O)C(=O)N[C@@H](CC(C)C)C(=O)N[C@@H](CS)C(N)=O — water intake (metabolic cages; C57BL/6J mice; ip, 5 mg/kg): no effect
COc1cnc2cccc(N3CCc4c(cc(Cn5ccnc5)cc4-c4cn(C)nc4C(F)(F)F)C3=O)c2c1 — Cmax (male CD-1 mouse, plasma; oral, 50 mg/kg): 14100 ng/mL
O=C(Nc1cnccc1-c1ccc([18F])nc1)c1ccnc(NC(=O)C2CC2)c1 — SUV (ex vivo gamma counting; GSK-3β transgenic mice, early-stage, thalamus; intravenous, 120 min, mean, P-gp inhibitor pretreatment, with: tariquidar 15 mg/kg iv): 0.063

Some of these lines once more:
NCCCC[C@H](NC(=O)[C@H](Cc1c[nH]c2ccccc12)NC(=O)[C@@H](N)Cc1c[nH]c2ccccc12)C(N)=O — Trp emission maximum (DOPC vesicles; 2 h): 357 nm
CN1CCCNC(=O)c2cccc(c2)C(=O)NCCCN(C)CCCNc2cccc3c2C(=O)c2cccc(c2C3=O)NCCC1 — ALT (mice, serum; dose not given): 29.3 IU/L
